Published values collected from several papers.
± marks the error that the study gave.
Broad substrate specificity ATP-binding cassette transporter ABCG2: Broad substrate specificity ATP-binding cassette transporter ABCG2 (Mus musculus, UniProt Q7TMS5)
UniProt Q7TMS5, sequence (whole entry, looked up): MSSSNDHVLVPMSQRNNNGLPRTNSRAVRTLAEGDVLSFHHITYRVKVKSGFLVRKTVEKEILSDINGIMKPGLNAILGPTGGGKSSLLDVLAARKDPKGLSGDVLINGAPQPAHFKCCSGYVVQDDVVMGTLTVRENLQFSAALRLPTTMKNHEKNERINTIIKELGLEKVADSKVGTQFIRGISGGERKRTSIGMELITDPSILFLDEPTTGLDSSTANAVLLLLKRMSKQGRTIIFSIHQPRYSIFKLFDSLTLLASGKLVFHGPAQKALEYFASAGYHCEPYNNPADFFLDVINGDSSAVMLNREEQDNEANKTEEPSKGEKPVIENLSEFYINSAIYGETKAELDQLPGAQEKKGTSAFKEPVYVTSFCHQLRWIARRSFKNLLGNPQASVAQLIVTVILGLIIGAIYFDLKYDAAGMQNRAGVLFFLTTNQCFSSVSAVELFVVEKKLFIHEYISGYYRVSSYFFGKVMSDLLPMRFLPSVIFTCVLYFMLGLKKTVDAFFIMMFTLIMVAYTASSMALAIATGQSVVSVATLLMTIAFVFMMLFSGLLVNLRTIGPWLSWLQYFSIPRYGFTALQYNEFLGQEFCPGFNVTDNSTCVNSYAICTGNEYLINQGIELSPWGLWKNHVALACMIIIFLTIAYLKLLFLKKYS
CYP2B6: Cytochrome P450 2B6 (CYP2B6, Homo sapiens, UniProt P20813)
UniProt P20813, sequence (whole entry, looked up): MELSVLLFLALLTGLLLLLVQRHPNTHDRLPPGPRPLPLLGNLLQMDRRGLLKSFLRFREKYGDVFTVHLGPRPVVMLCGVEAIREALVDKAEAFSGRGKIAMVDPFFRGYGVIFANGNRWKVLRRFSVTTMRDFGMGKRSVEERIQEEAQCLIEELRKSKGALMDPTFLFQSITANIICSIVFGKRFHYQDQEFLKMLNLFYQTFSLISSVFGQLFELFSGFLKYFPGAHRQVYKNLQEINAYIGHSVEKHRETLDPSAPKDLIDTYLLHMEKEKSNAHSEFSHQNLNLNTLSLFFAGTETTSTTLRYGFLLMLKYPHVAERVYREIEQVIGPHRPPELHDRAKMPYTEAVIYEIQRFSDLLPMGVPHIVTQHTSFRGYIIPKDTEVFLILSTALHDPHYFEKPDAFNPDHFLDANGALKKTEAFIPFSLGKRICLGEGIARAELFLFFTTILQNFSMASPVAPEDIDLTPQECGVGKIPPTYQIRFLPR
UniProt O75469, sequence (whole entry, looked up): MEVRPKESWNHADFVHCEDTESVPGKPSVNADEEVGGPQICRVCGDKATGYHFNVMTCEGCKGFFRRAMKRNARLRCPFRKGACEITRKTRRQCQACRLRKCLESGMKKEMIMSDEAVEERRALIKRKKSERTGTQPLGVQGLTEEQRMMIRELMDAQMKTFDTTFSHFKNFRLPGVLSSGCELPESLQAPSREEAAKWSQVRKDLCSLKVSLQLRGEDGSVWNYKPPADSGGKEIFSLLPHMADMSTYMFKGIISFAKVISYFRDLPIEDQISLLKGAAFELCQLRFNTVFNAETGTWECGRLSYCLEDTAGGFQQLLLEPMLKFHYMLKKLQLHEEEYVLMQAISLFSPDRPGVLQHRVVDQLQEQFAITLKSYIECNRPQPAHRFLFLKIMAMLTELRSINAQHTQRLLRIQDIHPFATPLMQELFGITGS
UniProt P08682, sequence (whole entry, looked up): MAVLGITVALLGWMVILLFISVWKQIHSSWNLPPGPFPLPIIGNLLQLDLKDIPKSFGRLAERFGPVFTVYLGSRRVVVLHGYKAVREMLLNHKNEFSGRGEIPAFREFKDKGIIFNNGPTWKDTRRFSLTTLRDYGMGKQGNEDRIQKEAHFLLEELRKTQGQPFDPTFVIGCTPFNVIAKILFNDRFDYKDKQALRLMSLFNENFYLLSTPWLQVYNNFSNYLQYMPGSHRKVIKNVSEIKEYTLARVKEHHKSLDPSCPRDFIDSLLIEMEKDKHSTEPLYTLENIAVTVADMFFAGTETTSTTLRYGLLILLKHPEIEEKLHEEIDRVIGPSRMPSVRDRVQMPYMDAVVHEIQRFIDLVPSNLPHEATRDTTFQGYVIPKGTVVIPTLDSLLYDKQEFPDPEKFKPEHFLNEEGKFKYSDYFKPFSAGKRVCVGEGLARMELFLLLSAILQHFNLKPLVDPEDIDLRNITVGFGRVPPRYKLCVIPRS
UniProt P11509, sequence (whole entry, looked up): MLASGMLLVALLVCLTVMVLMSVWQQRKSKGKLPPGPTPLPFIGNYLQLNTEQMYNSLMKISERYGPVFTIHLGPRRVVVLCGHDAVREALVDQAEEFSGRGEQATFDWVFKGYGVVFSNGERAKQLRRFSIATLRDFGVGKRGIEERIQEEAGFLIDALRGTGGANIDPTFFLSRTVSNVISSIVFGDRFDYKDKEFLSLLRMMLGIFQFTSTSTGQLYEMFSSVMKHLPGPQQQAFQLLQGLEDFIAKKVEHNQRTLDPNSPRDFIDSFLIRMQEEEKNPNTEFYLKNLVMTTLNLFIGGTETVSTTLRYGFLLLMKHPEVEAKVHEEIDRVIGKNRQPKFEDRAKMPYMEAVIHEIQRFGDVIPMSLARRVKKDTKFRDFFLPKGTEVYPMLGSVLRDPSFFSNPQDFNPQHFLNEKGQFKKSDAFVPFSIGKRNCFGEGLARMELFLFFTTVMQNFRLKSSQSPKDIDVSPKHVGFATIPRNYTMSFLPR
UniProt P19971, sequence (whole entry, looked up): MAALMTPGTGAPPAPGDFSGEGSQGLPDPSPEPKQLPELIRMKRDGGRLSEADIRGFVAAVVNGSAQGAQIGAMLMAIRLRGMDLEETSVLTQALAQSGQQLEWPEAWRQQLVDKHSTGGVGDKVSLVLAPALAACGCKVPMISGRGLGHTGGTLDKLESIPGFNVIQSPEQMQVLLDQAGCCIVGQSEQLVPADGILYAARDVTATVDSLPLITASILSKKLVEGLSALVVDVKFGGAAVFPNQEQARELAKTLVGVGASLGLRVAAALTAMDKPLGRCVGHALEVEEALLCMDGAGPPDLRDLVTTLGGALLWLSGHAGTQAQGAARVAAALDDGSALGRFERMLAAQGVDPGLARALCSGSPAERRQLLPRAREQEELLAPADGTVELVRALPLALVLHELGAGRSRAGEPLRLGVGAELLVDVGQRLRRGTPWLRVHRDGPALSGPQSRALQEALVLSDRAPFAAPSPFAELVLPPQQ
UniProt P10632, sequence (whole entry, looked up): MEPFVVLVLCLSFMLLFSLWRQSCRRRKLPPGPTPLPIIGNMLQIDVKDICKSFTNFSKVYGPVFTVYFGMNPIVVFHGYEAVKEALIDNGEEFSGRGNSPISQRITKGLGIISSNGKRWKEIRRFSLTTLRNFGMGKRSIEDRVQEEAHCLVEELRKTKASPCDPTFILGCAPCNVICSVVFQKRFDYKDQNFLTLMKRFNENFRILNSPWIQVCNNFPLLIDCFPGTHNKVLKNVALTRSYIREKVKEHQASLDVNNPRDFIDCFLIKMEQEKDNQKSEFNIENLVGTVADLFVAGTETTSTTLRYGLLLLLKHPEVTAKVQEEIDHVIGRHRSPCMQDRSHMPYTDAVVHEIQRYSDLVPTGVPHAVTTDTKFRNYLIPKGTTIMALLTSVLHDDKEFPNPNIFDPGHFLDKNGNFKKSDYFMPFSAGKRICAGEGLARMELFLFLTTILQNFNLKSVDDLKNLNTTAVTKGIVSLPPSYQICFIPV

Substance | target | assay | system | setting | how to read | measurement | result
O=c1ccc2ccccc2o1 | CYP2A6 human | 7-hydroxylation, substrate | human liver microsomes | CYP2A6 added 54 pmol/mg, ratio 0.125 |  | Km | 1.27 ± 0.25 µM
CC[C@H](C)[C@H](NC(=O)[C@H](CCC(=O)O)NC(=O)[C@H](CO)NC(=O)[C@@H](NC(=O)[C@@H](N)CO)C(C)C)C(=O)N[C@@H](CCC(N)=O)C(=O)N[C@@H](CC(C)C)C(=O)N[C@@H](CCSC)C(=O)N[C@@H](Cc1cnc[nH]1)C(=O)N[C@@H](CC(N)=O)C(=O)N[C@@H](CC(C)C)C(=O)NCC(=O)N[C@@H](CCCCN)C(=O)N[C@@H](Cc1cnc[nH]1)C(=O)N[C@@H](CC(C)C)C(=O)N[C@@H](CC(N)=O)C(=O)N[C@@H](CO)C(=O)N[C@@H](CCSC)C(=O)N[C@@H](CCC(=O)O)C(=O)N[C@@H](CCCN=C(N)N)C(=O)N[C@H](C(=O)N[C@@H](CCC(=O)O)C(=O)N[C@@H](Cc1c[nH]c2ccccc12)C(=O)N[C@@H](CC(C)C)C(=O)N[C@@H](CCCN=C(N)N)C(=O)N[C@@H](CCCCN)C(=O)N[C@@H](CCCCN)C(=O)N[C@@H](CC(C)C)C(=O)N[C@@H](CCC(N)=O)C(=O)N[C@@H](CC(=O)O)C(=O)N[C@H](C(=O)N[C@@H](Cc1cnc[nH]1)C(=O)N[C@@H](CC(N)=O)C(=O)N[C@@H](Cc1ccccc1)C(=O)O)C(C)C)C(C)C | Chymotrypsinogen A, activated (chymotrypsin) (Bos taurus, UniProt P00766) | substrate, HPLC-UV |  | 10 min, pH 6.5, 37 °C, without trypsin inhibitor |  | remaining intact compound | 0%
CC/C=C\C/C=C\C/C=C\C/C=C\C/C=C\C/C=C\CCC(=O)O | UGT1A1 (human) | measured: bilirubin | hUGT1 mouse | 10 mg/kg, 0.5 mg/mL | baseline: with over without inhibitor | intrinsic clearance ratio | 0.0034
CC(=O)N[C@@H](CC(C)C)C(=O)N[C@H](C=O)Cc1ccccc1 | Chymotrypsinogen A (Bos taurus, UniProt P00766) | 13C NMR titration, measured: hemiacetal oxyanion |  |  |  | pKa | < 6
c1n[nH]c2c1CCCC2 | CYP2E1 (Oryctolagus cuniculus, UniProt P08682) | inhibitor |  | pH 7.4, 37 °C, catalytic site, together with: 4-nitrophenol |  | Ki | 1 µM
Cc1coc2c1CC[C@@H](C)C2 | Cytochrome P450 2A6 (CYP2A6, Homo sapiens, UniProt P11509) | inactivator |  | 5 µM, 0 min, pH 7.4, 30 °C, together with: NADPH, semicarbazide 10 mM |  | remaining activity | 104 ± 3%
Cc1ccc(Nc2nccc(N(C)c3ccc4c(C)n(C)nc4c3)n2)cc1S(N)(=O)=O | Broad substrate specificity ATP-binding cassette transporter ABCG2 | bidirectional transport | MDCK-Bcrp1 (murine Bcrp1) | 5 µM, 240 min, together with: erlotinib |  | Papp B-A | 4.97 ± 0.15 ×10⁻⁶ cm/s
CO[C@H]1/C=C/O[C@@]2(C)Oc3c(C)c(O)c4c(O)c(c(/C=N/N5CCN(C)CC5)c(O)c4c3C2=O)NC(=O)/C(C)=C\C=C\[C@H](C)[C@H](O)[C@@H](C)[C@@H](O)[C@@H](C)[C@H](OC(C)=O)[C@@H]1C | Nuclear receptor subfamily 1 group I member 2 (NR1I2, Homo sapiens, UniProt O75469) | reporter gene, agonist, luciferase | HepG2 | 2.5 µM, 24 h |  | induction | 2.62
CCCCC/C=C\C/C=C\C/C=C\C/C=C\CCCC(=O)O | cytochrome P450 enzymes | M1 formation, inhibitor | pooled human intestinal microsomes | 100 µM, 5 min, pH 7.4, substrate named only as label, together with: 3 µM substrate |  | inhibition | 40%
CC1=N[C@]2(C(=O)CO)[C@@H](C[C@H]3[C@@H]4C[C@@H](O)C5=CC(=O)C=C[C@]5(C)[C@H]4[C@@H](O)C[C@@]32C)O1 | CYP2B6 |  | pooled human liver microsomes | 30 min preincubation, together with: NADPH |  | IC50 | > 50 µM
O=C1Nc2c(O)cc(Cl)cc2[C@@](C#CC2CC2)(C(F)(F)F)O1 | CYP2B6 | substrate |  | product formation, recombinant |  | Km | 3.6 ± 1.7 µM
CC(CN(C)C)CN1c2ccccc2CCc2ccccc21 (centres unmarked) | alpha-1-acid glycoprotein (human) | isothermal titration calorimetry |  | pH 7.4, 30 °C, heterogeneous AGP preparation |  | Kd | 404 µM
O=c1[nH]c(=O)n([C@H]2C[C@H](O)[C@@H](CO)O2)cc1F | Thymidine phosphorylase (Homo sapiens, UniProt P19971) | substrate |  | 200 µM, pH 7.0, 37 °C, together with: enzyme 2.0 ng/µL |  | half-life | 6 ± 3 min
O=C(O)c1cc(/N=N/c2ccc(S(=O)(=O)Nc3ccccn3)cc2)ccc1O | Broad substrate specificity ATP-binding cassette transporter ABCG2 |  | FVB mouse, plasma | oral, 20 mg/kg |  | AUC | 2170 ng·h/mL
Cn1cc(S(=O)(=O)N2CCC3=Cc4c(cnn4-c4ccc(F)cc4)C[C@]3(C(=O)c3cc(C(F)(F)F)ccn3)C2)cn1 | Cytochrome P450 2C8 (CYP2C8, Homo sapiens, UniProt P10632) |  | healthy human subjects | oral, 350 mg once daily, together with: pioglitazone probe substrate |  | CYP2C8 inhibition | no inhibition
ivermectin | P-glycoprotein 11.1 (Toxocara canis, UniProt A0A891XKB7) | transport, inhibitor | LLC-PK1 transfected with P-glycoprotein 11.1 | together with: Hoechst 33342 |  | IC50 | 322 µM
CN1CCN2c3ccccc3Cc3ccccc3C2C1 (centres unmarked) | alpha-1-acid glycoprotein (human) | isothermal titration calorimetry |  | pH 7.4, 30 °C, heterogeneous AGP preparation |  | Kd | 219 µM
